Measured values of several laboratories.
Numbered parts are unrelated; each lists some results of a single study. “And” joins repeats or separate records; there may be more than shown.

Series 1 — effect on: enzyme activity; action: inhibitor; concentration: 0.5 µM; relative to: control
Target: Serine/threonine-protein kinase 16 (STK16, Homo sapiens, UniProt O75716)
Sequence of UniProt O75716 (whole entry, looked up): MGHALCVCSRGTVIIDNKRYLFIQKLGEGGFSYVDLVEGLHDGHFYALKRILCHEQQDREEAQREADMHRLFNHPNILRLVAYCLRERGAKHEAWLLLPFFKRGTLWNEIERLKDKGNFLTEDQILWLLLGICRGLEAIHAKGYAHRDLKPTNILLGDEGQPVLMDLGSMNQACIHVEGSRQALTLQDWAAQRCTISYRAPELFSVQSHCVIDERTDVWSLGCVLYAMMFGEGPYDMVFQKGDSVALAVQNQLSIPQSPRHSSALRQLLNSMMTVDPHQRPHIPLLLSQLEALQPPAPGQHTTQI
Compound | remaining activity
COc1cc2c(N3CCN(C(=O)Nc4ccc(OC(C)C)cc4)CC3)ncnc2cc1OCCCN1CCCCC1 | 103%
O=C1NC(=O)/C(=C/c2ccc3c(c2)OC(F)(F)O3)S1 | 91%
N#CC(c1ccnc(NCCc2cccnc2)n1)c1nc2ccccc2s1 (stereo not shown) | 79.2%
N#C/C(=C(/N)SC1C=CC=CC1)c1cccc(C(O)c2ccncc2)c1 (stereo not shown) | 99.6%
O=C(c1ccccc1)c1ccc(N2CCOCC2)cc1O | 104%
O=c1c(-c2ccc(F)cc2)c(-c2ccncc2)[nH]n1-c1ccc(Cl)cc1 | 100%
C[C@@H](N)[C@H]1CC[C@H](C(=O)Nc2ccncc2)CC1 | 98.1%
CC(C)(C)c1nc2c3cc[nH]c(=O)c3c3cc(F)ccc3c2[nH]1 | 90.1%
CCCCc1c(-c2ccc(O)cc2)[nH]c2nccnc12 | 55.4%

Series 2 — effect on: ligand displacement; concentration: 10 µM
Target: Muscarinic acetylcholine receptor M2 (CHRM2, Homo sapiens, UniProt P08172)
Sequence of UniProt P08172 (whole entry, looked up): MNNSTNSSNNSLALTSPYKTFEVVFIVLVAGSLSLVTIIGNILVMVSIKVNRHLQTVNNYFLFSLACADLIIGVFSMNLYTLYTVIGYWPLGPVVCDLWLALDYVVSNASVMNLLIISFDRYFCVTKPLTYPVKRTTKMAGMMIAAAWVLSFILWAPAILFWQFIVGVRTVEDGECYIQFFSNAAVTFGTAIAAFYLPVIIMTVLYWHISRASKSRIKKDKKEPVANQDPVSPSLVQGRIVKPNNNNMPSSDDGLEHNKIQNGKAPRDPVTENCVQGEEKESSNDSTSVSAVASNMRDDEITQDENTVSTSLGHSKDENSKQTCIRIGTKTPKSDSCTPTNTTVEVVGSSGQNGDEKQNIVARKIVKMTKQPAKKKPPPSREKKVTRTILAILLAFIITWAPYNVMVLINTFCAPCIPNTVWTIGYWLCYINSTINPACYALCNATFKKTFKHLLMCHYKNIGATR
SMILES | inhibition
COc1cc(-c2cn(C3CCc4c(F)cccc4N(CC(F)(F)F)C3=O)nn2)ccc1-n1cnc(C)c1 (stereo not shown) | 14.4%
O=C(N[C@H]1CCCCC/C=C\C2C[C@@]2(C(=O)O)NC(=O)[C@@H]2C[C@@H](Oc3ccncc3)CN2C1=O)OC1CCCC1 (stereo partly shown) | -1.71%
NS(=O)(=O)c1cc(NC(=O)Cc2ccccc2)ccc1Oc1cccc(Cl)c1 | -8.33%
Cc1ncc(-c2cc(Cl)ccc2F)cc1-n1c(=O)n(CC(N)=O)c2ccccc21 | 14.4%
Cc1cc(Nc2nccc(C)n2)cc(-c2cnc([C@@]3(O)CC[C@H](C(=O)O)C(C)(C)C3)s2)c1 | 8.6%
CCC(=NO)C(C)=Cc1ccc(F)c(C)c1 | 14.3%
N#CC1(c2ccccn2)CCN(Cc2cc(C(=O)N3CCCC3)c(=O)n3ccccc23)CC1 | -14%
CCOc1ccc(S(=O)(=O)Nc2ccc(Cl)cc2C#Cc2cnc(C(=O)O)cc2OC)c2ncccc12 | -0.58%
Cc1ccccc1Oc1cc(-n2c(=O)cc(C(F)(F)F)[nH]c2=O)c2ccccc2c1Cl | 39.2%
C[C@H](c1ccnc(Nc2nc3ccc(-c4cc(N(C)C)ncn4)cc3[nH]2)c1)N1CCN(C(=O)CC(F)(F)F)CC1 | 32.9%
CN1CCN(c2cnc3c(C4CCN(C(=O)c5ccc(OC(F)(F)F)cc5N)CC4)ncnc3c2)CC1 | -0.56%
CNC(=O)Nc1ccc2c(c1)CC[C@]21OC(=O)N(CC(=O)N(Cc2ccc(F)cc2)[C@@H](C)C(F)(F)F)C1=O | -0.28%
Cn1cc(Cl)c2c(Oc3c(F)cc(Nc4cc(Cl)nc(N)n4)cc3F)ccnc21 | 0.85%
c1ccc(C2CCN(c3cnc4c(N5CCOCC5)nccn34)CC2)cc1 | 9.44%

Series 3 — cell line: mouse MPNST tumor cells; method: high-content immunofluorescence imaging; item: nuclear SOX9; concentration: 10 µM; time: 12 h; notes: mean of 2 replicates; relative to: DMSO control; reading: higher = more nuclear SOX9
SMILES | nuclear SOX9 intensity
CN[C@H]1CC[C@@H](c2ccc(Cl)c(Cl)c2)c2ccccc21 | 147 % of DMSO
COCCCOc1ccnc(C[S+]([O-])c2nc3ccccc3[nH]2)c1C (stereo not shown) | 92.3 % of DMSO
c1ccc2c(Oc3nc(Nc4ccc(N5CCOCC5)cc4)c4ncn(C5CCCCC5)c4n3)cccc2c1 | 172 % of DMSO
CCOc1nc2cccc(C(=O)O)c2n1Cc1ccc(-c2ccccc2-c2noc(=O)[nH]2)cc1 | 92.5 % of DMSO

Single results of other studies
SMILES | test | test system | conditions | quantity | result
CCCN1C(=O)[C@H](CC(C)C)NC(=O)[C@@H](N(C)C(=O)[C@H](CC2CCC2)NC(=O)[C@@H]2C[C@@H](F)CN2C(=O)[C@@](C)(O)C(F)(F)F)CCCCNC(=O)C2(CC2)NC(=O)[C@@H]1Cc1cc(Cl)ccc1Cl | immunohistochemistry | mice, NCI-H69 xenograft, tumour | intravenous, 100 mg/kg once daily, 18 h | phospho-KNL1 positive cells | 10.2% and 2.8%

Excerpt of the above (series 2):
SMILES | inhibition
C[C@H](c1ccnc(Nc2nc3ccc(-c4cc(N(C)C)ncn4)cc3[nH]2)c1)N1CCN(C(=O)CC(F)(F)F)CC1 | 32.9%
CN1CCN(c2cnc3c(C4CCN(C(=O)c5ccc(OC(F)(F)F)cc5N)CC4)ncnc3c2)CC1 | -0.56%
CNC(=O)Nc1ccc2c(c1)CC[C@]21OC(=O)N(CC(=O)N(Cc2ccc(F)cc2)[C@@H](C)C(F)(F)F)C1=O | -0.28%
Cn1cc(Cl)c2c(Oc3c(F)cc(Nc4cc(Cl)nc(N)n4)cc3F)ccnc21 | 0.85%
